Published values collected from several papers.
A part holds a random share of what one study measured.

Series 1 — target: human cyclin B2; observed: peptide binding; method: yeast competitive growth sequencing; molecule type: peptide; organism: Saccharomyces cerevisiae; strain: cyclin B2-Cln2 fusion; concentration: concentration not given; setting: library 2; reading: direction not given
`PPVIIKYIIINRF`: “binding enrichment score” -0.891.
`GFGFLLFICKLTF`: “binding enrichment score” -0.194.
`PSSMRKICTYFHR`: “binding enrichment score” -1.78.

Series 2 — method: competition protein-binding microarray; molecule type: double-stranded DNA, one strand shown; matrix: in vitro; concentration: 2 µM; together with: Pho4 competitor, 0.05 µM; reading: higher = stronger binding; constant ends, left off below: … GTCTTGATTCGCTTGACGCTGCTG
Target: Centromere-binding protein 1, full length, His-tagged (CBF1, Saccharomyces cerevisiae, UniProt P17106, residues 1-351)
UniProt P17106, sequence (whole entry, looked up): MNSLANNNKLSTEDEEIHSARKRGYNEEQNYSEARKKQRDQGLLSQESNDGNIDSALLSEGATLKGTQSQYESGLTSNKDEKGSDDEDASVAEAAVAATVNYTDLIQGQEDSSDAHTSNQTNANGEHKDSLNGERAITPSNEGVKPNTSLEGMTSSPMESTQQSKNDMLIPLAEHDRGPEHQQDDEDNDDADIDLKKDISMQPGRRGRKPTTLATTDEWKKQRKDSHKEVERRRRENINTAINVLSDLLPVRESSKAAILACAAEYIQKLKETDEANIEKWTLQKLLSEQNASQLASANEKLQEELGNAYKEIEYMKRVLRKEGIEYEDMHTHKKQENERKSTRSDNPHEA
Setting: whole 60-bp probe, lowest competitor level
The fluorescence intensity of `GGAGCAGGCTCAGAGAATGTGACGAAATTCGCTTTA` is reported as 69.7 a.u.
For `GCTTTTCCTAACGCGAACGTGCAAAGCATCGTTATT`, the fluorescence intensity was 91.1 a.u.
`CGTCCTAGTGATTGCGACGTGGGTGCCATGAGGAAG` gave a fluorescence intensity of 82.3 a.u.
For `TGCGCAACAACTTGTTAGGTGGGTGTATGTCTAGAA`, the fluorescence intensity was 68.3 a.u.
`AAATTACTAAGTTTTCACGTGCCCTACCCCGTATGA` has a fluorescence intensity of 1390 a.u.
`AAGAAATATCTGTGAAATGTGACGCTTATAGCATAC` gave a fluorescence intensity of 97.6 a.u.
With `CGTCCTAGTGATTGGGGCGTGGGTGCCATGAGGAAG` the fluorescence intensity was 84.3 a.u.
For `GAGTGCTTGCAATATCACAGCGGTAGCTAGACTCGC`, the fluorescence intensity was 54.5 a.u.
The fluorescence intensity of `CCAAGCCGCCAGCCCCGCGTGCGGCCTGCCGCGAGG` is reported as 45.6 a.u.
`GTCTTGTCTCATTGAGCCGTGGGTGTCCCCACTTCA` has a fluorescence intensity of 68.7 a.u.
`CATACCCAACCTTGGTCTGTGGGTGAAGATATTTGT` gave a fluorescence intensity of 74.6 a.u.
`CGTTAAGTAGCCCATCACGCAGCAAGACCGCGGCCC` has a fluorescence intensity of 68.2 a.u.
The fluorescence intensity of `CCAAGGAAGATGACGTTCGTGATGGCGTCATCAGAA` is reported as 67.7 a.u.
`GGAGTTAAAGTCGACCACGGGTCCTTTGGAGCATAG` gave a fluorescence intensity of 85.9 a.u.

Series 3 — method: RNA Bind-n-Seq; molecule type: RNA; matrix: in vitro; concentration: 365 nM; relative to: no-protein control; reading: higher = stronger binding
Target: RNA binding protein fox-1 homolog 2, RRM domain, GST-SBP tag (RBFOX2, Homo sapiens, UniProt O43251-10, residues 100-194)
Setting: natural RNA segment, single round, ends assumed
Constant ends, left off below: GGGAGUUCUACAGUCCGACGAUC … UGGAAUUCUCGGGUGCCAA
Target sequence (chain): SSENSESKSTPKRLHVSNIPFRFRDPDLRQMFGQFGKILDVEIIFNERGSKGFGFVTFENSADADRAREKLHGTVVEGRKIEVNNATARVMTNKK
For `UGGCUGUGGCAAGCUGUGAGCCCUCGCCUUGUCUGGGCCAAUCUGAGGACUGAACUGACCAGAUAGCGGCCCCAUCACCCCUACUGCUCCUUGGACCCCUUGGCCCAACC`, “RBNS enrichment (R)” read 0.242.
`UUUUUUGGGUAUGUCUGGAUCAUUCAGACAGUACAUUUGAAUUCCGCUGAAUGUAGAUAAAUAAAAGAAAAACAAAAGAAUGCCUGUCUCAGGCCUGGGUGUCUGACCCC` — result for “RBNS enrichment (R)”: 0.729.
`AUUCAAACCUUCCGGGGCUGUGACCUUCAAAGCUGUGUAAAUCAGUGUCAAGCACAUUAUAGUGUUUGCCCUCACAGGAAAAAAAAAAAAGUCCCCUGUUCUGAAAACAG`: “RBNS enrichment (R)” 0.279.
`AGGCCAGAUCUGUGCUCAAGCCAUAGUUCUGCUUAGAAAGGGAUGCCCCACCCUUACCGGACACUGGGAAGAACUGUUGGCCCCUAGAAACCAAAGGCCAAACUGAGGCU`: “RBNS enrichment (R)” 0.406.
`AUGGCCAAACUAUUUUGAAUUUUGUUGUCUGGCCCUCAGUGCCCUGCCCUCUCCCUUUGCAGGACCACAGCUCCCGUCCUUUGGCUUCUGGUCCUUCCUGUUCUCCACCC` — result for “RBNS enrichment (R)”: 0.643.
`UGGAAAGGUAAUUUAUGAUUAACUUAGAUAAUAGGUAAAAGCGACCUUACAAAAAACAUAAUUAUCUAGGAGUCCCACAUACUGGACCUACCCUAUUAUACCUCCAAGAG`: “RBNS enrichment (R)” 0.37.
For `AGUCGGAACAGCAGAUAACAAUGCAGCAAGGCCCUGCUGCCCAAUCUCCAUCUGUCAACAGGGGCGUGAGGUCCCAGGAAGUGGCCAAAAGCUAGACAGAUCCCCGUUCC`, “RBNS enrichment (R)” read 0.316.
Under “RBNS enrichment (R)”, `UGUCCUUAAUGCUGCUUCUGUUAACAGUGAUCUCUUUCUUUUUUUCAUUCUUAUAUCUUCAUUAGUUCAUCAUAAAUCUGUCCAGUUGAGGCCUCAGGACCACGGCAUGA` is recorded as 3.83.
`UGCUGGAUUAUUGUCUGUCUUUAUAGCAAGUUCCAGUAAACCACAAGUAUGGCAAAGCUUAUCCAAUUUUAUGCUUGGAGCAGUCAGUACAUACCAGUUUCUGAUGUUUC`: “RBNS enrichment (R)” 0.324.
For `UGGGCUCAUUGUGACCACUGGCCUCUCUACAGCACGGCCUGUGGCCUGUUCAAGGCAGAACCACGACCCUUGACUCCCGGGUGGGGAGGUGGCCAAGGAUGCUGGAGCUG`, “RBNS enrichment (R)” read 0.416.
`ACAGUCCCUGGAAUUAACAGAUCAGAAUGUUCACACUGGUUAAUCUUUUUUUAACAAUGAGCAUGAAGGUAGCAGAAGCUGGUGUGUUUCCAGAUGGUUCUUCUAACCAA`: “RBNS enrichment (R)” 2.76.
Under “RBNS enrichment (R)”, `CAGGUGAUAGCUGGUCUCCUGCCUCCACCUCCUGAGUGCUGGGGUUACAGGUGAUCGCUGGUCUCCUGCCUCCACCUCCUGAGUGCUGGGGUUACAGGUGAUCGCUGGUC` is recorded as 0.22.

Series 4 — method: RNA Bind-n-Seq; molecule type: RNA; matrix: in vitro; concentration: 200 nM; setting: whole 134-nt RNA, ends assumed; together with: 150 mM LiCl; relative to: input library; reading: higher = stronger binding; library: 7-deaza-guanosine replaces G
Target: Ras GTPase-activating protein-binding protein 1, full length (G3BP1, Homo sapiens, UniProt Q13283)
UniProt Q13283, sequence (whole entry, looked up): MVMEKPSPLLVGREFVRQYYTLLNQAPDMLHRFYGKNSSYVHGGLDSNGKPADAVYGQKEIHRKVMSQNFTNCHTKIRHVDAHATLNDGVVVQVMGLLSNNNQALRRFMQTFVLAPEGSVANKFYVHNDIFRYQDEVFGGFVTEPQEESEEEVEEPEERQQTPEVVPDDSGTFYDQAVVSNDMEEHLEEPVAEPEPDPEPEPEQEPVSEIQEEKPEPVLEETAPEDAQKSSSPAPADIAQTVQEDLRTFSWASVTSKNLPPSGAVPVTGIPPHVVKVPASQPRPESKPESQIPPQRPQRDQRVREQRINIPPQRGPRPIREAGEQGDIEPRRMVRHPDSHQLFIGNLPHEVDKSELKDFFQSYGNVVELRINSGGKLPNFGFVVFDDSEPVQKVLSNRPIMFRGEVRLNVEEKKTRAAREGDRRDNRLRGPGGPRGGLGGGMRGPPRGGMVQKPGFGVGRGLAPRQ
Constant ends, left off below: GGGAGUUCUACAGUCCGACGAUC … UGGAAUUCUCGGGUGUCAAGG
With `GCAGGAAGUAAAAACAAAUGGAAAUGCUUCGGAUAGUGGCAGGGGUGGGGGUUGCUAAGGAAAGAGUGGGAUGGGAGUGGGUAAAGAGUU` the log2 enrichment was 0.202.
For `CACAGACAACACGCACCCACACAGACACAGAGGGAAGGGGUUGGGAUGGGGACAGGGUGCACAGCAGGGCGGGGUAGGACCCCAGCCCGU`, the log2 enrichment was -0.607.
The log2 enrichment of `UCCUGUGCUACACAUCGUAUGUACCGAAUCGGGGAAAAAGGGGUUUGGGGUUUUUGGGGAAAGUAUUAUGUUACGCCGUUCGGAUCUGCA` is reported as -0.764.
The log2 enrichment of `UGGCCCUGGUGGCAUGCGGGGAGGAAGAGGUGGCCUCAUGGAUCGUGGUAGUCCCGGUGGAAUGUUCAGAGGUGGCCGUGGUGGAGACAG` is reported as 0.898.
With `UAACUUUAGAGGAGGAUCUGAUGGAUAUGGCAGUGGACGUGGAUUUGAGGAUGGCUAUAAUGGGUAUGGAGGAGGACCUGGAGGUGGCAA` the log2 enrichment was -0.142.
`CCUGUGCUACACAUCGUAUGUACCGAAUCGGGAAAAAAAGGGGAAAAAAAGGAAAAAAAGGAAAGUAUUAUGUUACGCCGUUCGGAUCUG` has a log2 enrichment of 0.24.
`AGUCCUGUGCUACACAUCGUAUGUACCGAAUCGGGGUGGGGUGGGGUUUUUUUGGGGAAAGUAUUAUGUUACGCCGUUCGGAUCUGCACU` has a log2 enrichment of 0.431.
The log2 enrichment of `UGGGAGGUGGAUUUUGUUUAUUUUUUUAGCUCAGUUCCAGGGGUGGGAAUUUUUUUUUAAUAUGUGUCAUGAAUAAAGUUGUUUUUGAAA` is reported as 0.125.
`ACCAUGCAGGUGGGCAUCUUUGGGAAGUGGGGCAAGGGGGGGAUAGGGAGGGGGGUAACACUUUGGGAACAGGUAGUCCCAGGUCGUUUC` has a log2 enrichment of 0.118.
With `CACAGACAACACGCACCCACACAGACACAGAGGGAAGGGGUUGGGAUGGGGACAGGGUGCACAUCAGGGCGGGGUAGGACCCCAGCCCCU` the log2 enrichment was 0.0338.
With `AAGUCCUGUGCUACACAUCGUAUGUACCGAAUCGGGUUUUUGGGUUUGGGAAAGGGAAAGUAUUAUGUUACGCCGUUCGGAUCUGCACUU` the log2 enrichment was -0.742.

Series 5 — method: universal PBM; molecule type: double-stranded DNA, one strand shown; matrix: in vitro; concentration: 600 nM; reading: higher = stronger binding
Target: Sal-like protein 4, full length isoform A (SALL4, Homo sapiens, UniProt Q9UJQ4, residues 1-1053)
UniProt Q9UJQ4, sequence (whole entry, looked up): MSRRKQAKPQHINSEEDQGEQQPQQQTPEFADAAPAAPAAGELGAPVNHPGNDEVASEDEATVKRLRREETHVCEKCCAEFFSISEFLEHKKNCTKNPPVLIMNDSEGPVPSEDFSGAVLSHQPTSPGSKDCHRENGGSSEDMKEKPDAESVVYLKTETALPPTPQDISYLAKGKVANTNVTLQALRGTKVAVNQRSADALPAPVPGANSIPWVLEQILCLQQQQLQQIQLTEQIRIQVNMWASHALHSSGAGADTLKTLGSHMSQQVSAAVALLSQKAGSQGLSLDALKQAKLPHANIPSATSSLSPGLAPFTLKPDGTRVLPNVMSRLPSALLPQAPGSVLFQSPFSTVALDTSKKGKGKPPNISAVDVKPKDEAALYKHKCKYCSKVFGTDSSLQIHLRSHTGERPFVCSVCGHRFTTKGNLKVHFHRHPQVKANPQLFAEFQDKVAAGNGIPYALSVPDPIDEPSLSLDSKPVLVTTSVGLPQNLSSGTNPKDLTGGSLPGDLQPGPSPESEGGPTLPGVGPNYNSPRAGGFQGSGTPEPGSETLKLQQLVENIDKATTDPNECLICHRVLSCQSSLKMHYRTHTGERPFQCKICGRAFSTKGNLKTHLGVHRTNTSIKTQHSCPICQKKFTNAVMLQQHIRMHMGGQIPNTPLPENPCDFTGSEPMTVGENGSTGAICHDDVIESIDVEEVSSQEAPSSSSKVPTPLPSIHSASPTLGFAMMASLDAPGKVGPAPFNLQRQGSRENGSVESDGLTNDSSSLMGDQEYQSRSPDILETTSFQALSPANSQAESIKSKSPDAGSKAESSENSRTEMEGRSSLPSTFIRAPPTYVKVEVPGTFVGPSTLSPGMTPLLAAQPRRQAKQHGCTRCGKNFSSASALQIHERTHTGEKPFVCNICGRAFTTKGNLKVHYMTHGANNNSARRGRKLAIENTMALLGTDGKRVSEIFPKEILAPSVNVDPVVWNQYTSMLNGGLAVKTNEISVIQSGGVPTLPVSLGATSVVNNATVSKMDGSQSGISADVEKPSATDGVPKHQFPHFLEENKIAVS
Setting: 8-mer, flanks averaged, mean of replicates
`AAGGATTA` has an E-score of 0.251.
For `CAATCGCG`, the E-score was -0.154.
`GAGCTGTA` gave an E-score of -0.0302.
The E-score of `CGATGTAA` is reported as 0.113.
For `GGGTCCAA`, the E-score was -0.226.
`ATTGGACC` has an E-score of -0.121.
With `CCGTGAAG` the E-score was -0.204.
The E-score of `AACCTGGG` is reported as -0.3.
`ACCGGCGT` has an E-score of -0.329.
`AGATGGCT` gave an E-score of 0.07.
`AACGACTA` gave an E-score of 0.132.
For `ATGTCCAA`, the E-score was 0.147.
The E-score of `ACGGATAA` is reported as 0.129.
`AGCACCGA` has an E-score of -0.0838.
`CTTTGCTC` has an E-score of -0.0878.
`AAACATGA` gave an E-score of 0.285.
With `GAGGCCGC` the E-score was -0.382.
With `ATGCTGTA` the E-score was 0.178.
With `CAAGTAGC` the E-score was -0.127.
For `AACGTTAA`, the E-score was 0.159.
For `CTTGTTGA`, the E-score was 0.0663.
`TCGGTACA` has an E-score of 0.0585.
With `ATGAAGAA` the E-score was 0.315.

Repeated from above (series 5):
For `GGGTCCAA`, the E-score was -0.226.
`ATTGGACC` has an E-score of -0.121.
With `CCGTGAAG` the E-score was -0.204.
The E-score of `AACCTGGG` is reported as -0.3.
`ACCGGCGT` has an E-score of -0.329.
`AGATGGCT` gave an E-score of 0.07.
